{"data": "Experimental data gathered from unrelated publications", "note": "Each numbered part is a random draw from the data of one study; scales do not carry over between parts.", "chain of UniProt P35367 (whole entry, looked up)": "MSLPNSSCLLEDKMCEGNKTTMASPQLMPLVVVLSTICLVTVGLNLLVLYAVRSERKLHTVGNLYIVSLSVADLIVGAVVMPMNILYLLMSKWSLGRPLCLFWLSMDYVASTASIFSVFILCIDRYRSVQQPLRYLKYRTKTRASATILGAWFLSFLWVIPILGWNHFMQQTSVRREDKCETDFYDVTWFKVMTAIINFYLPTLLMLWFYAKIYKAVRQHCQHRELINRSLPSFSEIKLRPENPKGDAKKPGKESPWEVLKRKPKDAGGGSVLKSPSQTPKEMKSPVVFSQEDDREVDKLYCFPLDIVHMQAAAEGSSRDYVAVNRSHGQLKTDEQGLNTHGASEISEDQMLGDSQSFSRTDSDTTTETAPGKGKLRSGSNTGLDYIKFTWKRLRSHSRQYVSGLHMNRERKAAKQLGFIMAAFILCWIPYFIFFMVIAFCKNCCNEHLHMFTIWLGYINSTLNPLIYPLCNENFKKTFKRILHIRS", "chain of UniProt P08913 (whole entry, looked up)": "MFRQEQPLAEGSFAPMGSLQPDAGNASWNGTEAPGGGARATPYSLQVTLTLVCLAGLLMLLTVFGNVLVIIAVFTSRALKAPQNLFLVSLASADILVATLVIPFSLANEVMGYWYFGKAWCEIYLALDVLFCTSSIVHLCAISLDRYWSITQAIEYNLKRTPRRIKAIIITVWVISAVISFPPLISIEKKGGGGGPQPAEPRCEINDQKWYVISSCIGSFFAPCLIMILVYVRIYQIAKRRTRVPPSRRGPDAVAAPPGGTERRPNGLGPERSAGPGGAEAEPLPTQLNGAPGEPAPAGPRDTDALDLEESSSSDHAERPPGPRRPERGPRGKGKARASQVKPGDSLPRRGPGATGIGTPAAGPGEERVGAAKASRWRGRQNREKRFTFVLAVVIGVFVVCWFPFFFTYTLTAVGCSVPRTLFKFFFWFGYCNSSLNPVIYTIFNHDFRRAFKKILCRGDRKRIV", "chain of UniProt P18825 (whole entry, looked up)": "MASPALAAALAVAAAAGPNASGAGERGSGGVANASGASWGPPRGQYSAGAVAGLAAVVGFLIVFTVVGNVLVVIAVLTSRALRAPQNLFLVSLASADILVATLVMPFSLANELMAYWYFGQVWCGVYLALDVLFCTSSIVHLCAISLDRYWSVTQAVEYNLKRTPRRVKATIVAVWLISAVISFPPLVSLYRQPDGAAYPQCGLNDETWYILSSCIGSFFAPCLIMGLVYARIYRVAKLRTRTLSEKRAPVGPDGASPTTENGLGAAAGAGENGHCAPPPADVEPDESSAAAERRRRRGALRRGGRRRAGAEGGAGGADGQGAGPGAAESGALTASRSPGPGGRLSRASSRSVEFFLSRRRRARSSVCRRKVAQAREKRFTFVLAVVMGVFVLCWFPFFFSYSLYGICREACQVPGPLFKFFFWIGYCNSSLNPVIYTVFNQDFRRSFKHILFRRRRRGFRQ", "chain of UniProt P34969 (whole entry, looked up)": "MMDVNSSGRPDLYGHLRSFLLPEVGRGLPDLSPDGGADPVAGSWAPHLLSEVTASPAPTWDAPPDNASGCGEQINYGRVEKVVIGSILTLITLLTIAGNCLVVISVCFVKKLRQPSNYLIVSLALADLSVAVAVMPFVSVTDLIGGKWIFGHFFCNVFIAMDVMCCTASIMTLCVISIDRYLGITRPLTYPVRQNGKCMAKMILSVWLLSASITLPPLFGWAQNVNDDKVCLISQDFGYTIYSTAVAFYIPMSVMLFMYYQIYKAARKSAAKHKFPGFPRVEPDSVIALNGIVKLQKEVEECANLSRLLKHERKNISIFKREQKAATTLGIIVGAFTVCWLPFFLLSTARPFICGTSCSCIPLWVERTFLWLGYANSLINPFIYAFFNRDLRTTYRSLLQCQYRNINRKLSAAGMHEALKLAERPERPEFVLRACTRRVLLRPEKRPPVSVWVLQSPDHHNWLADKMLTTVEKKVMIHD", "chain of UniProt Q5BJF2 (whole entry, looked up)": "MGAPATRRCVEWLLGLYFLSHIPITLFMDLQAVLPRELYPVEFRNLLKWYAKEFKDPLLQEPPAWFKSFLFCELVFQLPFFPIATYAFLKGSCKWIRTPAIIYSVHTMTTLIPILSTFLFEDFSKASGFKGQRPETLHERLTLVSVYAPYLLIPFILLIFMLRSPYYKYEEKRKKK", "chain of UniProt P08912 (whole entry, looked up)": "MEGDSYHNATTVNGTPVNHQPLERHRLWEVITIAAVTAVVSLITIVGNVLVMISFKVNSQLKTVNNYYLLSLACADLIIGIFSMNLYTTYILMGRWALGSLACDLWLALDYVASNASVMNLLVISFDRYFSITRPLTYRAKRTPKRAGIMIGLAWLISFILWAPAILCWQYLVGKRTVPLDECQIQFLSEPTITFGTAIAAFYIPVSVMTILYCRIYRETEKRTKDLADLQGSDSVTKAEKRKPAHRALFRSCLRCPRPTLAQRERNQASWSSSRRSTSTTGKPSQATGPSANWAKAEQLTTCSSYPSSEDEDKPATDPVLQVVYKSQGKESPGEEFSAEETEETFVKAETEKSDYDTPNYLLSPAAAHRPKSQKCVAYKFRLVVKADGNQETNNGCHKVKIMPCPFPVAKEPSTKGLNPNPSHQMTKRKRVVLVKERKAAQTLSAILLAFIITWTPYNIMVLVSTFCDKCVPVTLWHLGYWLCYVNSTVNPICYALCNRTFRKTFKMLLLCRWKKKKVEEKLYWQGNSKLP", "chain of UniProt P21728 (whole entry, looked up)": "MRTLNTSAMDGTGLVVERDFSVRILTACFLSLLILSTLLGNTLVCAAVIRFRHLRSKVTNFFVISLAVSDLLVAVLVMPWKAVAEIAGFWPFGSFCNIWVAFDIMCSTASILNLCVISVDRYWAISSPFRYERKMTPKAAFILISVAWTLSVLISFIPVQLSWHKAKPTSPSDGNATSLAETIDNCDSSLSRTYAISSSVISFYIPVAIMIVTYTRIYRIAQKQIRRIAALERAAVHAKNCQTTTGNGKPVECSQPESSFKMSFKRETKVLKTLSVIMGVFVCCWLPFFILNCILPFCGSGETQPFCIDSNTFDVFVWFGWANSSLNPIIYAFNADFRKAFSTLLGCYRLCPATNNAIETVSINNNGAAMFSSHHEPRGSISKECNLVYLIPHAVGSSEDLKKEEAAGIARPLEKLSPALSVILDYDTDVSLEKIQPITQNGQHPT", "chain of UniProt P08173 (whole entry, looked up)": "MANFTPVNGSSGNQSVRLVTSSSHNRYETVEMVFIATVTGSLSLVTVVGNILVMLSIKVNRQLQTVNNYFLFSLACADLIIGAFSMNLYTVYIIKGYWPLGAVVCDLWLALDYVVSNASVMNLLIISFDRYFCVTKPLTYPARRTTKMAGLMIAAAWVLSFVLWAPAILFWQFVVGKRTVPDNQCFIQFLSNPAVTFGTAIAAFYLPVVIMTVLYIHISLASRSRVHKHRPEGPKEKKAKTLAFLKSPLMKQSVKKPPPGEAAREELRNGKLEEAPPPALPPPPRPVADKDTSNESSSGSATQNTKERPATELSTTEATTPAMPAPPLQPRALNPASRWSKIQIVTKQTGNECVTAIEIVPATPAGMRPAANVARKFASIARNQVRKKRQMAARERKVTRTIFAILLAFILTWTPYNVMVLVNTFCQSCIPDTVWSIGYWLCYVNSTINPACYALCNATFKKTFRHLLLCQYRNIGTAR", "chain of UniProt P35462 (whole entry, looked up)": "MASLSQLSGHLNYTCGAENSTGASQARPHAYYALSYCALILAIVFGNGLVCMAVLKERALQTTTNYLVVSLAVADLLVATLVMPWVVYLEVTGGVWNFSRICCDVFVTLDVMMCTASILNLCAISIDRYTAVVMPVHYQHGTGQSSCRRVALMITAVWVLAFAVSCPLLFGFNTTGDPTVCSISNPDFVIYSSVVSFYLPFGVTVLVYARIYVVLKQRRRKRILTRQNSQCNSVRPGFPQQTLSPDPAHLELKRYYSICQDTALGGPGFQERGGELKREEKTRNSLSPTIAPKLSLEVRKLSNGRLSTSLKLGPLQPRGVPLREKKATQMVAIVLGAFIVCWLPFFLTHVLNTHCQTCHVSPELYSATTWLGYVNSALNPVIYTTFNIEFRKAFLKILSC", "chain of UniProt P25021 (whole entry, looked up)": "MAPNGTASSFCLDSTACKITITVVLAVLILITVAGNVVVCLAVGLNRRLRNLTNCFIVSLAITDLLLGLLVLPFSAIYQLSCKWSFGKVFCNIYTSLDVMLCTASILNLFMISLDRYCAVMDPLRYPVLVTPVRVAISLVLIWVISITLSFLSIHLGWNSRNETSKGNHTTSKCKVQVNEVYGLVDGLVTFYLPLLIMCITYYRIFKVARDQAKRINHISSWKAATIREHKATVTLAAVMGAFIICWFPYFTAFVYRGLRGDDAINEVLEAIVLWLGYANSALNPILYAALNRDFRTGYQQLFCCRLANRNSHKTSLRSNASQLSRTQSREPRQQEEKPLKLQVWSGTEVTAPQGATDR"}
{"data": "Study 1", "target": "Maternal embryonic leucine zipper kinase (MELK, Homo sapiens, UniProt Q14680)", "observed": "enzyme activity", "action": "inhibitor", "tested at": "0.5 µM", "relative to": "control", "chain of UniProt Q14680 (whole entry, looked up)": "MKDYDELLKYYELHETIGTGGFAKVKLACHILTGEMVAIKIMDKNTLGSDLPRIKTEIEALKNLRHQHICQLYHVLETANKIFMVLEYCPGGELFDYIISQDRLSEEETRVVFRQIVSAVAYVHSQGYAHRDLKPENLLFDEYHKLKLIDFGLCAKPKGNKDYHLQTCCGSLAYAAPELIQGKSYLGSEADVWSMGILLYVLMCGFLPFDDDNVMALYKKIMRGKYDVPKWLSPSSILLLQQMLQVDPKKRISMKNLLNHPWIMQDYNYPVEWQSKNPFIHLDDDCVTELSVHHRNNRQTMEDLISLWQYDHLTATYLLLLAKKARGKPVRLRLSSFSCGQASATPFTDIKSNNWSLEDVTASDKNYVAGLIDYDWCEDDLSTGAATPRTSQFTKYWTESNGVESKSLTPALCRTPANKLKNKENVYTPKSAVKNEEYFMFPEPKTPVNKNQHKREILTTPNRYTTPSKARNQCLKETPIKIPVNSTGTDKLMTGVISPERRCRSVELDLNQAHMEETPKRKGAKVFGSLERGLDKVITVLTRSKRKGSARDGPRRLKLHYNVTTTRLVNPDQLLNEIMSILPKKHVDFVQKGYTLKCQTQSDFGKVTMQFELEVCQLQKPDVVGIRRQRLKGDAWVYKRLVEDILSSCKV"}
{"SMILES": "O=Nc1c(-c2c(O)[nH]c3cc(Br)ccc23)[nH]c2ccccc12", "remaining activity [%]": 43.5}
{"SMILES": "O=C1NC(=O)c2c1c1c3ccccc3[nH]c1n1cncc21", "remaining activity [%]": 32.6}
{"SMILES": "CN(C)S(=O)(=O)c1ccc2c(c1)/C(=C/c1cc3c([nH]1)CCCC3)C(=O)N2", "remaining activity [%]": 89.1}
{"SMILES": "O=C1Nc2ccc(Br)cc2/C1=C/c1cc2c([nH]1)CCCC2", "remaining activity [%]": 75.6}
{"SMILES": "N#Cc1cnc2cnc(NCc3cccnc3)cc2c1Nc1ccc(F)c(Cl)c1", "remaining activity [%]": 88}
{"SMILES": "CCCCc1c(-c2ccc(OC)cc2)[nH]c2nccnc12", "remaining activity [%]": 84.4}
{"SMILES": "O=C1Cc2c([nH]c3ccc(Br)cc23)-c2ccccc2N1", "remaining activity [%]": 74.8}
{"SMILES": "c1ccc2c(-c3ccncc3)c[nH]c2c1", "remaining activity [%]": 102}
{"SMILES": "COc1cccc(-c2cc(=O)c3ccccc3o2)c1N", "remaining activity [%]": 94}
{"SMILES": "CN1CCN(c2ccc3nc(-c4c(N)c5c(F)cccc5[nH]c4=O)[nH]c3c2)CC1", "remaining activity [%]": 7.72}
{"SMILES": "CCCNC(=O)Nc1ccc(Oc2ncnc3cc(OC)c(OC)cc23)cc1Cl", "remaining activity [%]": 86.8}
{"SMILES": "Cc1cc(Nc2cc(N3CCN(C)CC3)nc(Sc3ccc(NC(=O)C4CC4)cc3)n2)[nH]n1", "remaining activity [%]": 53.4}
{"SMILES": "O=C1Nc2ccccc2/C1=C\\c1c(Cl)[nH]c2ccccc12", "remaining activity [%]": 85.7}
{"SMILES": "O=C1NC(=O)c2c1c1c3ccccc3[nH]c1c1[nH]c3cc(Br)ccc3c21", "remaining activity [%]": 46.6}
{"SMILES": "Cc1ccc(S(=O)(=O)/C=C/C#N)cc1", "remaining activity [%]": 92}
{"SMILES": "O=C(c1cc2cc(O)ccc2[nH]1)c1cc2cc(O)ccc2[nH]1", "remaining activity [%]": 49.2}
{"SMILES": "O=c1cc(N2CCOCC2)oc2c(-c3ccccc3)cccc12", "remaining activity [%]": 91.3}
{"SMILES": "COc1ccc2c(c1)c(C1=C(c3c[nH]c4ccccc34)C(=O)NC1=O)cn2CCCN(C)C", "remaining activity [%]": 70.7}
{"SMILES": "Oc1cccc(-c2nc(N3CCOCC3)c3oc4ncccc4c3n2)c1", "remaining activity [%]": 75.5}
{"SMILES": "c1ccc(-c2n[nH]c3c2oc2ccccc23)cc1", "remaining activity [%]": 77}
{"data": "Study 2", "Compound": "CC(C)n1cnc(-c2ccc(F)cc2)c1-c1ncc(C(=O)Nc2ccc(N3CCN(C)CC3)cc2)[nH]1", "technique": "Phase 2a trial", "species": "idiopathic pulmonary fibrosis patients"}
{"test": "measured: gamma-glutamyltransferase increased", "conditions": "30 mg once daily, grade 1 maximum intensity", "patients with adverse events [%]": 0}
{"test": "measured: tri-iodothyronine increased", "conditions": "30 mg once daily, grade 4 maximum intensity", "patients with adverse events [%]": 0}
{"test": "measured: infections and infestations", "conditions": "dose not given, grade 5 maximum intensity, all arms", "patients with adverse events [%]": 0}
{"test": "measured: gamma-glutamyltransferase increased", "conditions": "30 mg once daily, grade 3 maximum intensity", "patients with adverse events [%]": 0}
{"test": "measured: vision blurred", "conditions": "30 mg once daily, grade 4 maximum intensity", "patients with adverse events [%]": 0}
{"test": "measured: urinary tract infection", "conditions": "dose not given, grade 3 maximum intensity, all arms", "patients with adverse events [%]": 0}
{"test": "measured: respiratory tract infection", "conditions": "dose not given, grade 5 maximum intensity, all arms", "patients with adverse events [%]": 0}
{"test": "measured: respiratory tract infection", "conditions": "60 mg once daily, grade 4 maximum intensity", "patients with adverse events [%]": 0}
{"test": "measured: vision blurred", "conditions": "dose not given, grade 3 maximum intensity, all arms", "patients with adverse events [%]": 0}
{"test": "measured: back pain", "conditions": "30 mg once daily, grade 1 maximum intensity", "patients with adverse events [%]": 0}
{"test": "measured: blood alkaline phosphatase increased", "conditions": "dose not given, grade 4 maximum intensity, all arms", "patients with adverse events [%]": 0}
{"test": "measured: blood bilirubin increased", "conditions": "30 mg once daily, grade 1 maximum intensity", "patients with adverse events [%]": 0}
{"test": "measured: blood creatine phosphokinase increased", "conditions": "60 mg once daily, grade 4 maximum intensity", "patients with adverse events [%]": 0}
{"test": "measured: blood alkaline phosphatase increased", "conditions": "dose not given, grade 3 maximum intensity, all arms", "patients with adverse events [%]": 0}
{"test": "measured: blood bilirubin increased", "conditions": "60 mg once daily, grade 5 maximum intensity", "patients with adverse events [%]": 0}
{"test": "measured: urinary tract infection", "conditions": "dose not given, grade 1 maximum intensity, all arms", "patients with adverse events [%]": 0}
{"test": "measured: oral herpes", "conditions": "oral, 60 mg once daily, grade 1 maximum intensity", "patients with adverse events [%]": 0}
{"data": "Study 3", "target": "Diamine acetyltransferase 1 (Homo sapiens, UniProt P21673)", "action": "inhibitor", "tested at": "10 µM", "relative to": "control", "Residues (P21673 1-171)": "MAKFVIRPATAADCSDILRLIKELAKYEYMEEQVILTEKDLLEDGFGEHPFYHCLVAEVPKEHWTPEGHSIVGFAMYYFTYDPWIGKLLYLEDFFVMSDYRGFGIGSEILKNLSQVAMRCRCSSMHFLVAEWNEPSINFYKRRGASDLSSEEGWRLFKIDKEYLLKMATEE"}
{"Structure (SMILES)": "COc1ccc(-c2cc(=O)c3c(O)c(OC)c(O)c(OC)c3o2)cc1", "remaining activity [%]": 104}
{"Structure (SMILES)": "CCCCCCCCCCCCCCCCCCCCCCC", "remaining activity [%]": 75.6}
{"Structure (SMILES)": "COc1cc2ccc(=O)oc2cc1OC", "remaining activity [%]": 84.7}
{"Structure (SMILES)": "CCCCCCCC/C=C\\CCCCCCCC(=O)OCC(O)CO (centres unmarked)", "remaining activity [%]": 92.6}
{"Structure (SMILES)": "C=C1C[C@@]2(O)O[C@@]3(C[C@H]2C(C)C)[C@@H](C)CC[C@@H]13", "remaining activity [%]": 91.8}
{"Structure (SMILES)": "CCCCCCCC/C=C\\CCCCCCCC(=O)O", "remaining activity [%]": 90.9}
{"Structure (SMILES)": "CC/C=C\\CCO", "remaining activity [%]": 109}
{"Structure (SMILES)": "C=C1CCOC1=O", "remaining activity [%]": 108}
{"Structure (SMILES)": "CCCCCCCCCCCCCCCCCCCCCCCCCCCC(=O)O", "remaining activity [%]": 89.4}
{"Structure (SMILES)": "CC1(C)[C@@H]2CC[C@@]1(C)[C@@H](O)C2", "remaining activity [%]": 98.4}
{"Structure (SMILES)": "C[C@@H]1O[C@@H](O[C@H]2[C@H](O[C@H]3[C@H](O[C@H]4CC[C@@]5(C)[C@@H](CC[C@]6(C)[C@@H]5CC=C5[C@@H]7CC(C)(C)C[C@@H](O)[C@]7(C)CC[C@]56C)[C@@]4(C)CO)O[C@H](C(=O)O)[C@@H](O)[C@@H]3O)O[C@H](CO)[C@H](O)[C@@H]2O)[C@H](O)[C@H](O)[C@H]1O", "remaining activity [%]": 110}
{"Structure (SMILES)": "COc1cc(-c2oc3cc(O)cc(O)c3c(=O)c2O[C@@H]2O[C@H](CO[C@@H]3O[C@@H](C)[C@H](O)[C@@H](O)[C@H]3O)[C@@H](O)[C@H](O)[C@H]2O)ccc1O", "remaining activity [%]": 99.9}
{"Structure (SMILES)": "OC[C@H]1O[C@@H](O[C@@H]2OC=C[C@H]3[C@H](O)[C@@H]4O[C@]4(CO)[C@@H]23)[C@H](O)[C@@H](O)[C@@H]1O", "remaining activity [%]": 94.3}
{"Structure (SMILES)": "COc1c(O)cc2oc(-c3ccccc3)cc(=O)c2c1O", "remaining activity [%]": 96.7}
{"Structure (SMILES)": "CC(=O)O[C@H]1CC[C@]2(C)[C@H]3CC=C4[C@@H]5CC(C)(C)CC[C@]5(C(=O)O)CC[C@@]4(C)[C@]3(C)CC[C@H]2C1(C)C", "remaining activity [%]": 75}
{"Structure (SMILES)": "CCCCC/C=C/C=C/C=O", "remaining activity [%]": 93.5}
{"Structure (SMILES)": "CCCCCCCC/C=C\\CCCCCCCC(=O)O[C@H](COC(=O)CCCCCCCCCCCCCCC)COP(=O)([O-])OCC[N+](C)(C)C", "remaining activity [%]": 104}
{"Structure (SMILES)": "C/C=C/c1ccc(O)c(OC)c1", "remaining activity [%]": 125}
{"Structure (SMILES)": "C[C@]1(O)C[C@@H](O)[C@@H]2C=CO[C@@H](O[C@@H]3O[C@H](CO)[C@@H](O)[C@H](O)[C@H]3O)[C@@H]21", "remaining activity [%]": 101}
{"data": "Study 4", "SMILES": "NS(=O)(=O)c1cc(NC(=O)C2(c3ccccc3Cl)CC2)ccc1Oc1cccc(Cl)c1", "observed": "cell-free assay", "tested at": "10 µM"}
{"target": "ADRA2A (Homo sapiens, UniProt P08913)", "inhibition [%]": 40.8}
{"target": "ADRA2C (Homo sapiens, UniProt P18825)", "inhibition [%]": 89.6}
{"target": "CHRM5 (Homo sapiens, UniProt P08912)", "inhibition [%]": 14.7}
{"target": "HRH2 (Homo sapiens, UniProt P25021)", "inhibition [%]": 11.5}
{"target": "DRD1 (Homo sapiens, UniProt P21728)", "inhibition [%]": 3.57}
{"target": "DRD3 (Homo sapiens, UniProt P35462)", "inhibition [%]": 10.5}
{"target": "ADRB2 (Homo sapiens, UniProt P07550)", "inhibition [%]": -10.7}
{"target": "HTR7 (Homo sapiens, UniProt P34969)", "inhibition [%]": 17.3}
{"target": "TMEM97 (Homo sapiens, UniProt Q5BJF2)", "inhibition [%]": 82}
{"target": "CHRM4 (Homo sapiens, UniProt P08173)", "inhibition [%]": -1.95}
{"target": "CHRM2 (Homo sapiens, UniProt P08172)", "inhibition [%]": 2.03}
{"target": "HRH1 (Homo sapiens, UniProt P35367)", "inhibition [%]": 17.9}
{"note": "Excerpt of the above (study 3):"}
{"Structure (SMILES)": "C[C@@H]1O[C@@H](O[C@H]2[C@H](O[C@H]3[C@H](O[C@H]4CC[C@@]5(C)[C@@H](CC[C@]6(C)[C@@H]5CC=C5[C@@H]7CC(C)(C)C[C@@H](O)[C@]7(C)CC[C@]56C)[C@@]4(C)CO)O[C@H](C(=O)O)[C@@H](O)[C@@H]3O)O[C@H](CO)[C@H](O)[C@@H]2O)[C@H](O)[C@H](O)[C@H]1O", "remaining activity [%]": 110}
{"Structure (SMILES)": "COc1cc(-c2oc3cc(O)cc(O)c3c(=O)c2O[C@@H]2O[C@H](CO[C@@H]3O[C@@H](C)[C@H](O)[C@@H](O)[C@H]3O)[C@@H](O)[C@H](O)[C@H]2O)ccc1O", "remaining activity [%]": 99.9}
{"Structure (SMILES)": "CCCCCCCC/C=C\\CCCCCCCC(=O)O[C@H](COC(=O)CCCCCCCCCCCCCCC)COP(=O)([O-])OCC[N+](C)(C)C", "remaining activity [%]": 104}
{"Structure (SMILES)": "COc1c(O)cc2oc(-c3ccccc3)cc(=O)c2c1O", "remaining activity [%]": 96.7}
{"Structure (SMILES)": "C/C=C/c1ccc(O)c(OC)c1", "remaining activity [%]": 125}
{"Structure (SMILES)": "CCCCC/C=C/C=C/C=O", "remaining activity [%]": 93.5}
